Assay results collected from several papers.
Compare with care: the assays were run in different laboratories. ± gives the spread as reported.

SMILES = CC[C@H](C)[C@H](NC(=O)[C@H](CCCCN)NC(=O)[C@H](C)NC(=O)[C@H](CCCNC(=N)N)NC(=O)[C@H](CCCCN)NC(=O)[C@H](CC(N)=O)NC(=O)[C@H](CCC(N)=O)NC(=O)[C@H](Cc1ccccc1)NC(=O)[C@H](Cc1c[nH]c2ccccc12)NC(=O)[C@@H](NC(=O)[C@H](CCCCN)NC(=O)[C@@H](NC(=O)[C@H](CCC(N)=O)NC(=O)[C@H](CO)NC(=O)[C@H](CC(C)C)NC(=O)[C@H](CCC(N)=O)NC(=O)[C@H](C)NC(=O)[C@H](CCCNC(=N)N)NC(=O)[C@@H](NC(=O)[C@H](Cc1ccccc1)NC(=O)[C@@H](NC(=O)[C@@H](NC(=O)[C@H](CCCNC(=N)N)NC(=O)[C@H](CCC(=O)O)NC(=O)[C@H](CCCNC(=N)N)NC(=O)[C@H](CCCNC(=N)N)NC(=O)[C@H](CCC(N)=O)NC(=O)[C@H](CCCCN)NC(=O)[C@H](CCCNC(=N)N)NC(=O)CNC(=O)CNC(=O)CNC(=O)CNC(=O)CNC(=O)CCCC[C@@H]1SC[C@@H]2NC(=O)N[C@@H]21)[C@@H](C)O)[C@@H](C)O)[C@@H](C)O)[C@@H](C)CC)[C@@H](C)CC)C(=O)N[C@@H](CCCCN)C(=O)N[C@@H](CCCCN)C(N)=O; cell line = CHO pgsA-745 (GAG-deficient); test = MALDI-TOF MS; setting = 7 µM, 1 h, together with: heparin up to 7.2 µg/mL; endpoint = cellular uptake; result = ~30 pmol
SMILES = CC(C)c1ccc2c(c1)CC[C@H]1[C@](C)(C(=O)OCC#CCN3CCOCC3)CCC[C@]21C; cell line = BHK-21-hACE2; setting = 20.0 µM, 48 (unit not given); endpoint = viability; result = 108%
SMILES = CCCCn1cc(C(=O)O)c(=O)c2cc(F)c(Nc3ccccc3Cl)c([N+](=O)[O-])c21; cell line = HCT-116; test = cell growth or viability, SRB; endpoint = IC50; result = 97.1 µM
SMILES = FC(F)(F)c1cccc(Nc2c3c(nc4ccccc24)CCCC3)c1; cell line = HepG2; test = MTT; setting = 50 µM, 24 h, 10% FBS; endpoint = inhibition; result = 34.4 ± 1.72%
SMILES = CCc1ccc([C@H](C)CC(=O)NC(=O)N[C@@H]2O[C@H](CO)[C@@H](O)[C@H](O)[C@H]2O)cc1; cell line = HEL fibroblasts; test = cell morphology; setting = 3 days; endpoint = minimal cytotoxic concentration; result = > 100 µM
SMILES = CCCCn1cc(C(=O)O)c(=O)c2cc(F)c3c(nnn3-c3ccccc3Cl)c21; cell line = HCT-116; test = cell growth, SRB; setting = 72 h; endpoint = IC50; result = 53.1 ± 4.23 µg/mL
SMILES = N=C(N)NCCC[C@H]1NC(=O)[C@H](CCCN)NC(=O)[C@@H](Cc2c[nH]cn2)NC(=O)[C@H](Cc2ccc(O)cc2)NC(=O)[C@@H](Cc2ccc(O)cc2)NC(=O)[C@H](Cc2ccccc2)NC(=O)[C@@H](Cc2c[nH]c3ccccc23)NC(=O)[C@H](CO)NC1=O; cell line = erythrocytes; test = hemolysis; endpoint = HD50; result = 98 µM
SMILES = C[C@@H]1NC(=O)[C@H](CCCCCC(=O)[C@@H]2CO2)NC(=O)[C@H]2CCCN2C(=O)[C@H](Cc2ccccc2)NC1=O; cell line = MIA PaCa-2; test = MTT; setting = 48 h; endpoint = LC50; result = 0.022 µM
SMILES = CC(=O)OC[C@H]1O[C@@H](NC(=O)NC(=O)/C=C/c2ccc(C(C)C)cc2)[C@H](OC(C)=O)[C@@H](OC(C)=O)[C@@H]1OC(C)=O; cell line = HEL fibroblasts; test = cell morphology; setting = 3 days; endpoint = minimal cytotoxic concentration; result = > 100 µM
SMILES = CC(C)[C@@H]1NC(=O)[C@H](Cc2ccccc2)NC(=O)[C@@H]2NC(=O)[C@H](Cc3ccccc3)NC(=O)[C@@H]3CCCN3C(=O)CNC(=O)[C@H](Cc3ccccc3)NC(=O)[C@@H]3CNCCCC[C@@H](C(=O)O)NC(=O)[C@@H]4NC(=O)[C@H](CC(N)=O)NC(=O)CNC(=O)[C@H]([C@@H](O)C(=O)O)NC(=O)[C@H](CSC[C@@H](NC(=O)[C@H](CCC(N)=O)NC(=O)[C@H](CCCNC(=N)N)NC(=O)[C@@H](N)CS[C@H]4C)C(=O)N[C@@H](CS[C@H]2C)C(=O)N3)NC1=O; cell line = CEM 1A2 tat/rev++; test = MTT; endpoint = cytotoxic concentration; result = ~200 nM
SMILES = NC(=O)c1ccc(C(=O)NOCc2ccc(Sc3cccc(Cl)c3)c(C(F)(F)F)c2)cc1; cell line = L3.6pl cells (human); test = CCK-8; setting = 100 µM; endpoint = cytotoxicity; result = not toxic
SMILES = CCN(CC)CC#CCOC(=O)[C@]1(C)CCC[C@@]2(C)[C@H]1CC(C=O)=C1C=C(C(C)C)CC[C@@H]12; cell line = BHK-21-hACE2; setting = 20.0 µM, 48 (unit not given); endpoint = viability; result = < 50%
SMILES = CCCCn1cc(C(=O)O)c(=O)c2cc(F)c(Nc3cccc(Cl)c3)c([N+](=O)[O-])c21; cell line = HCT-116; test = cell growth or viability, SRB; endpoint = IC50; result = 77.9 µM
SMILES = O=C1C(O)=C(CN2CC3CCC2CC3)C(=O)c2ccccc21; cell line = BGM (monkey kidney); test = MTT; test system = 10% FCS; setting = 24 h; endpoint = median lethal concentration; result = ≥ 3360 µM
SMILES = CC(=O)Oc1ccc(Cn2ccc(=O)[nH]c2=O)cc1C1OC(c2ccc(Cl)cc2)=NN1C(C)=O (stereo not drawn); cell line = HEL fibroblasts; test = cell morphology alteration; endpoint = minimum cytotoxic concentration; result = 100 µM
SMILES = CCc1ccc([C@H](C)CC(=O)N[C@@H]2O[C@H](CO)[C@@H](O)[C@H](O)[C@H]2O)cc1; cell line = HEL fibroblasts; test = cell morphology; setting = 3 days; endpoint = minimal cytotoxic concentration; result = > 100 µM
SMILES = CC(C)(CO)NCC1=C(O)C(=O)c2ccccc2C1=O; cell line = BGM (monkey kidney); test = MTT; test system = 10% FCS; setting = 24 h; endpoint = median lethal concentration; result = 322 ± 28.3 µM
SMILES = CC(=O)OC[C@H]1O[C@@H](NC(=O)NC(=O)[C@@H](C)Cc2ccc(C(C)C)cc2)[C@H](OC(C)=O)[C@@H](OC(C)=O)[C@@H]1OC(C)=O; cell line = HEL fibroblasts; test = cell morphology; setting = 3 days; endpoint = minimal cytotoxic concentration; result = > 100 µM
SMILES = CC=C(C)C(=O)OC1C(O)C2OC(COC(=O)CCCCCCCCCC(CCCCC)OC3OC(C)C(OC(C)=O)C(O)C3O2)C1OC(=O)C=Cc1ccccc1 (stereo not drawn); cell line = MCF-10A; test = cytotoxicity; endpoint = IC50; result = 0.0307 µM
SMILES = COc1c(OC(=O)N(C)c2ccc(C)cc2)cc2oc3cc4c(c(O)c3c(=O)c2c1CC=C(C)C)C=CC(C)(C)O4; cell line = PC-12; test = cell proliferation, MTT; setting = 10 µM, 24 h; endpoint = inhibition; result = 7.8%
SMILES = CC(=O)Nc1ccc(/C=N/NC(=S)Nc2cccc3cccnc23)cc1; cell line = CHO; test = resazurin; setting = 48 h, 10% FBS; endpoint = highest non-cytotoxic concentration; result = > 200 µg/mL
SMILES = CC(=O)Oc1ccc(Cn2cc(C)c(=O)[nH]c2=O)cc1C1OC(c2ccccc2)=NN1C(C)=O (stereo not drawn); cell line = HEL fibroblasts; test = cell morphology, microscopy; endpoint = minimum cytotoxic concentration; result = ≥ 100 µM
SMILES = c1cncc(Nc2c3c(nc4ccccc24)CCCC3)c1; cell line = HepG2; test = MTT; setting = 50 µM, 24 h, 10% FBS; endpoint = inhibition; result = 27.5 ± 1.06%
SMILES = NCCc1ccc(-c2nc3cc(OCCF)ccc3n3cccc23)cc1; cell line = HEK293 DR-GFP; test = homologous recombination, inhibitor, DR-GFP reporter; setting = max tested 40 µM; endpoint = maximum tolerated concentration; result = 10 µM
SMILES = c1ccc2c(Nc3c4c(nc5ccccc35)CCCC4)cccc2c1; cell line = HepG2; test = MTT; setting = 50 µM, 24 h, 10% FBS; endpoint = inhibition; result = 66.4 ± 2.85%
SMILES = [Ga+3].[O-]c1ccc(Br)c2cccnc12.[O-]c1ccc(Br)c2cccnc12.[O-]c1ccc(Br)c2cccnc12; cell line = HCT-116; test = MTT; setting = 25 µM, 72 h; endpoint = cytotoxicity; result = 95.2%
SMILES = COc1cc(O)c2c(c1)/C=C/C[C@H](O)[C@H](O)C(=O)/C=C\C[C@H](C)OC2=O; cell line = Calu-3, SARS-CoV-2 infected; test = alamarBlue; setting = concentration not given; endpoint = cytotoxicity; result = not toxic
SMILES = CCc1cccc(N(C)C(=O)Oc2cc3oc4cc5c(c(O)c4c(=O)c3c(CC=C(C)C)c2OC)C=CC(C)(C)O5)c1; cell line = PC-12; test = cell proliferation, MTT; setting = 10 µM, 24 h; endpoint = inhibition; result = 0%
SMILES = CC(=O)Oc1ccc(Cn2cc(C)c(=O)[nH]c2=O)cc1C1OC(c2ccc(Cl)cc2)=NN1C(C)=O (stereo not drawn); cell line = HEL fibroblasts; test = cell morphology alteration; endpoint = minimum cytotoxic concentration; result = 100 µM
SMILES = CCCCCn1c(SC(C(=O)NCc2ccccc2)C(=O)NCc2ccccc2)nc2cc(C(=O)Nc3cccc(C(F)(F)F)c3)ccc2c1=O; cell line = PC-12; test = MTS; setting = 10 µM, 48 h; endpoint = cytotoxicity; result = not toxic

Repeated from above:
SMILES = FC(F)(F)c1cccc(Nc2c3c(nc4ccccc24)CCCC3)c1; cell line = HepG2; test = MTT; setting = 50 µM, 24 h, 10% FBS; endpoint = inhibition; result = 34.4 ± 1.72%
SMILES = CCc1ccc([C@H](C)CC(=O)NC(=O)N[C@@H]2O[C@H](CO)[C@@H](O)[C@H](O)[C@H]2O)cc1; cell line = HEL fibroblasts; test = cell morphology; setting = 3 days; endpoint = minimal cytotoxic concentration; result = > 100 µM
SMILES = CCCCn1cc(C(=O)O)c(=O)c2cc(F)c3c(nnn3-c3ccccc3Cl)c21; cell line = HCT-116; test = cell growth, SRB; setting = 72 h; endpoint = IC50; result = 53.1 ± 4.23 µg/mL
SMILES = N=C(N)NCCC[C@H]1NC(=O)[C@H](CCCN)NC(=O)[C@@H](Cc2c[nH]cn2)NC(=O)[C@H](Cc2ccc(O)cc2)NC(=O)[C@@H](Cc2ccc(O)cc2)NC(=O)[C@H](Cc2ccccc2)NC(=O)[C@@H](Cc2c[nH]c3ccccc23)NC(=O)[C@H](CO)NC1=O; cell line = erythrocytes; test = hemolysis; endpoint = HD50; result = 98 µM
